# Measured values from different studies.
# Every numbered part comes from another study and shows a few of its results, in no order.

# Series 1 — method: RNAcompete; molecule type: RNA; medium: in vitro; tested at: 20 nM; notes: 7-mer, probes averaged, single round; relative to: mean of 7-mers; reading: higher = stronger binding
# Target: PABPC1L2, full length, GST fusion (mouse, UniProt A0ABA7IW68)
# Construct (chain): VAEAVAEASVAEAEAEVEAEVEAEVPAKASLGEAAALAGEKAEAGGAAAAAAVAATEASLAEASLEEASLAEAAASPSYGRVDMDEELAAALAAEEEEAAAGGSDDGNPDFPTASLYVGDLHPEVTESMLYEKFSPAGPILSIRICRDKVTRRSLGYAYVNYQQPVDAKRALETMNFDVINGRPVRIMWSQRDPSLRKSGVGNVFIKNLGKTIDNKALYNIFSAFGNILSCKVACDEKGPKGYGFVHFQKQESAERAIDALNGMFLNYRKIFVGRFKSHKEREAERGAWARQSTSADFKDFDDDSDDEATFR
Oligonucleotide,7-mer Z-score
GAUUGUA,-0.191
UAAAGAG,1.44
AGUUUAG,-0.184
UUGUUAU,-0.434
GAUAGUC,-0.3
UUAGUCA,-0.289
GACCUAU,-0.177
GGCUAAU,-0.141
CGGUCGA,-0.141
GAAGCCU,-0.266
GCUUCUG,-0.407
UAGCGUC,-0.302
AUAGUCC,-0.246
CGGCUUG,-0.271

# Series 2 — method: universal PBM; molecule type: double-stranded DNA, one strand shown; medium: in vitro; tested at: 600 nM; reading: higher = stronger binding
# Target: Sal-like protein 4, full length isoform A (SALL4, Homo sapiens, UniProt Q9UJQ4, residues 1-1053)
# UniProt Q9UJQ4, sequence (whole entry, looked up): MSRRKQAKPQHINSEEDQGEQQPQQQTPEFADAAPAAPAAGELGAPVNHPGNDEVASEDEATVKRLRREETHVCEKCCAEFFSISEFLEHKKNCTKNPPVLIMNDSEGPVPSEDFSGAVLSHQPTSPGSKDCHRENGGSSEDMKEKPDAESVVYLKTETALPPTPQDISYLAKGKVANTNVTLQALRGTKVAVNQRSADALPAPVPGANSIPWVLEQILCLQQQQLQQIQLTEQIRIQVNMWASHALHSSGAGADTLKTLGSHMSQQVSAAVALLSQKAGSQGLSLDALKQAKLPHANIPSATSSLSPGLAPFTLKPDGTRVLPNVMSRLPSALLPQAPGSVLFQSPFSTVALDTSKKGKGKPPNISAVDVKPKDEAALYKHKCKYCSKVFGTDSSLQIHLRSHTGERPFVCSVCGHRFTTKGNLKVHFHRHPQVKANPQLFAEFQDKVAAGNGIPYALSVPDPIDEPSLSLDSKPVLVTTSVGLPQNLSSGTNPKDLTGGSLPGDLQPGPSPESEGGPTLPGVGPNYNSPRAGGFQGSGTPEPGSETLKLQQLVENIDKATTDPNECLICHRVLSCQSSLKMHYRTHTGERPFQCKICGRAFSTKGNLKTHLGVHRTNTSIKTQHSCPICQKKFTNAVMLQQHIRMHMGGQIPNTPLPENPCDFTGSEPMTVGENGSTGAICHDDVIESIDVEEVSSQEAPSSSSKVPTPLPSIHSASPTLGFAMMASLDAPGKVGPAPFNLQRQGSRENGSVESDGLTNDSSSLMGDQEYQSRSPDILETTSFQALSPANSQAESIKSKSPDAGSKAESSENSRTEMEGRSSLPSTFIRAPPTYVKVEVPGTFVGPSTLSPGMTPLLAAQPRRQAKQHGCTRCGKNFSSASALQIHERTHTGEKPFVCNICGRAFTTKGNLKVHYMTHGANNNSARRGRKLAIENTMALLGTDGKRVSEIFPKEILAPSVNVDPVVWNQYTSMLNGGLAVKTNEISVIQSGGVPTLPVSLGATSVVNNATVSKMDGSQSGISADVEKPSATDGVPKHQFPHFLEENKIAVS
# Notes: 8-mer, flanks averaged, mean of replicates
Oligonucleotide,E-score
AATCCACG,0.0205
TCCTGTCA,0.0582
GTGCTAAA,0.0917
GGGAGTAA,0.0841
ACGGGCTC,-0.33
ACAACATA,0.244
ATGTGCAG,0.0827
CACCTGCA,-0.176
GGGGGAAA,-0.0605
AAACCGCC,-0.125
CTTACTCA,0.113
AGCGAGGC,-0.266
CATTTGCG,0.0669
ATGCACGA,0.0722
CGGTCAGA,-0.129
ATCCATCA,0.0609
CGGTCCGC,-0.295
CGCGCGTA,-0.321
ACCGCAAA,-0.00634
CGATTTCC,-0.143

# Series 3 — method: competition protein-binding microarray; molecule type: double-stranded DNA, one strand shown; medium: in vitro; tested at: 2 µM; together with: Cbf1 competitor, 0.05 µM; reading: higher = stronger binding
# Target: Phosphate system positive regulatory protein PHO4, full length, GST-tagged (PHO4, Saccharomyces cerevisiae, UniProt P07270, residues 1-312)
# Notes: whole 60-bp probe, lowest competitor level
# Target sequence (chain): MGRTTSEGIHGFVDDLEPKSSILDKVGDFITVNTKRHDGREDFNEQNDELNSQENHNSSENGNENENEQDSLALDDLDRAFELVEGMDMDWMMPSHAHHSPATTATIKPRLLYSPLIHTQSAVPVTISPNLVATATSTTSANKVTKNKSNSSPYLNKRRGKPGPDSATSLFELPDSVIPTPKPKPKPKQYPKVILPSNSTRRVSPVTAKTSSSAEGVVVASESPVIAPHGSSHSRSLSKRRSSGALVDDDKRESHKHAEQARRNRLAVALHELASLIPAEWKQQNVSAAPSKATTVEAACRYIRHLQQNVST
Oligonucleotide,fluorescence intensity [a.u.]
TCTAGCATTTCCATACAGGTGATAGTATCAAATTGTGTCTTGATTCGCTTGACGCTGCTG,4110
CTTCTGTAAATTTGGCGTGTGGGTGGACGCGCCCCGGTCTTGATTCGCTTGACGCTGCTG,5880
TTGAACTCGCCGCCTCACCTGCCACTACGTCTTCCGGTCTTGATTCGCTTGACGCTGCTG,3910
CTAACGAAGGTTTCTCACGTGTTTTACAAGCCAAGTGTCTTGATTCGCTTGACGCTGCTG,14400
AAATTACTAAGTTGGTACGTGGGTGACGCCGTATGAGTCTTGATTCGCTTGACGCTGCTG,8540
AAATTACTAAGTTGAGTCGTGGGTGACGCCGTATGAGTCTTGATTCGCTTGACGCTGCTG,8190
CATACCCAACCTTCACACGTGTTTTAAGATATTTGTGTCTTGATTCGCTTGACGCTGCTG,19900
ACATCAAGGCACAATCACCTGATGAGTCTGCCTTAGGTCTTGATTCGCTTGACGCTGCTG,4640
CGCCTTCTAATGGACATTCTTCTCAAACTCTACAAAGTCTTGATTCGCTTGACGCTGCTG,3090

# Series 4 — method: protein-binding microarray; molecule type: double-stranded DNA, one strand shown; medium: in vitro; tested at: 2540 nM top; notes: 60-bp whole probe; together with: salmon DNA 0.4 mg/ml; relative to: random background probes; reading: higher = stronger binding; shared flanks, not repeated: GCCTAGCAC … GTCTTGATTCGCTTGACGCTGCTG
# Target: Interferon regulatory factor 3, full length, phosphomimetic (IRF3, Homo sapiens, UniProt Q14653, residues 1-427, S386D/S396D/S398D/S402D/T404D/S405D)
# UniProt Q14653, sequence (whole entry, unmodified, looked up): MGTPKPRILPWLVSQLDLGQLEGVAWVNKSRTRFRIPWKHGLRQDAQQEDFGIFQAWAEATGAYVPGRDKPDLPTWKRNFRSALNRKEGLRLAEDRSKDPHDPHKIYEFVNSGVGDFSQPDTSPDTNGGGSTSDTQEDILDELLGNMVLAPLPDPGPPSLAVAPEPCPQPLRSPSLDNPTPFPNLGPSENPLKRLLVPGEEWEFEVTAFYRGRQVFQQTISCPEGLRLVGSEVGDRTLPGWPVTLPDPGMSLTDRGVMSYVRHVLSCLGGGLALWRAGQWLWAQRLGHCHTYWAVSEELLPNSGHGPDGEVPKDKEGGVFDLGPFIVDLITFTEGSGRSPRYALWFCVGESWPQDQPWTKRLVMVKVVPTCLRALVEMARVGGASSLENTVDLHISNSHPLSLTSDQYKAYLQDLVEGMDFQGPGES
Oligonucleotide,fitted relative affinity [z-score]
TCAATTTTGCTTCTAGAACTGTGCTAG,1.15
GACGGTTTCGGGTATCGGGTCGTGCTA,4.49
TCATAAATCTTTGTTGGAACTGTGCTA,-0.0839
GACGGTATCGGAATGGGGACGTGCTAG,3.48
GACGGTCTCCTTTTACTGACGTGCTAG,4.3
GACGATATCAGTCTCGAGCCGTGCTAG,0.77
TTAGATCTCAGTCTCGAATAGTGCTAG,0.509
TTCGGTTTCGGGTTTCGGTTAGTGCTA,6.55
TTAGGTCTCGACTATCGGTTAGTGCTA,-0.0673
GACGATTTCAGTATCGAGGCGTGCTAG,2.02
ATAGAACTGAGTATCGATTAGTGCTAG,0.238
TCTCCTTTCGGAATACCCTCGTGCTAG,5.23
TCATGTCTGGATGTGCCACTGTGCTAG,-0.132
GACGGTATTGGACTGGGGACGTGCTAG,-0.201
GACGGTAGCGACACTGGGGACGTGCTA,-0.746

# Series 5 — method: RNA Bind-n-Seq; molecule type: RNA; medium: in vitro; tested at: 200 nM; notes: whole 134-nt RNA, ends assumed; together with: 150 mM LiCl; relative to: input library; reading: higher = stronger binding; each molecule: 7-deaza-guanosine replaces G
# Target: Ras GTPase-activating protein-binding protein 1, full length (G3BP1, Homo sapiens, UniProt Q13283)
# UniProt Q13283, sequence (whole entry, looked up): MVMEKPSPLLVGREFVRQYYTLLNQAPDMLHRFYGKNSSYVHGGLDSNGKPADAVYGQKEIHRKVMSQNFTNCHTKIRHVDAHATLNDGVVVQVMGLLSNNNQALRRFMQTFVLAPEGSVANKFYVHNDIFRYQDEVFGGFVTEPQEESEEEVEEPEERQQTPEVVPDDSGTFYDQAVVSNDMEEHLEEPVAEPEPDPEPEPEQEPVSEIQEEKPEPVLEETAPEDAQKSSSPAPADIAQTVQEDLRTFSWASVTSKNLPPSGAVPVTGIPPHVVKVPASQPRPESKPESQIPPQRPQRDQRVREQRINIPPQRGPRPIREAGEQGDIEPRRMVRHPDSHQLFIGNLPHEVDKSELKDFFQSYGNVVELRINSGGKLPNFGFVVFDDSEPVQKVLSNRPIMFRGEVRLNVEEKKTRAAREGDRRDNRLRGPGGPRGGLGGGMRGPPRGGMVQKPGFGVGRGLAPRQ
Oligonucleotide,log2 enrichment
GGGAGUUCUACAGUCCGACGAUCUUCGACGAAACAAUUCGAAAGCCCAUCAGUUUGGGUUGUGGCCAUACUGUCUGCAAGAUGUGCCUGAAUAAACUCCACCGCAAGGCUUGCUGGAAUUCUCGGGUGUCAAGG,0.175
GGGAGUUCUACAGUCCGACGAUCACCAUGCAGGUGGGCAUCUUUGGGAAGUGGGGCAAGGGGGGGAUAGGGAGGGGGAUAACACUUUGGGAACAGGUGGUCCCAGGUCGUUUCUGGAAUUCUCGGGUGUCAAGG,0.442
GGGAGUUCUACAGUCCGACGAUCUCCUGUGCUACACAUCGUAUGUACCGAAUCGGGGAAAAAGGGGAAAAAGGGAAAAAGGGAAAGUAUUAUGUUACGCCGUUCGGAUCUGCAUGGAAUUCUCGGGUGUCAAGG,0.408
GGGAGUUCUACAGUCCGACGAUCUGUGCUACACAUCGUAUGUACCGAAUCGGGGUUUUUUUGGGUUUUUUUGGGGUUUUUUUGGGAAAGUAUUAUGUUACGCCGUUCGGAUCUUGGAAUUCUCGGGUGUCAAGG,1.57
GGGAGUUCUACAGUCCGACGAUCGCAGGAAAUAAAAACAAAUGGAAAUGCUUCGGAUAGUGGCAGGGGUGGGGGUUGCUAAGGAAAGGGUGGGAUGGGAGUGGGUAAAGAGUUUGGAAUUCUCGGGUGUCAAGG,-0.0243
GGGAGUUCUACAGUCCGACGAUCCAAGUCCUGUGCUACACAUCGUAUGUACCGAAUCGGAAAGGAAAAAAAGGUUUGGAAAGUAUUAUGUUACGCCGUUCGGAUCUGCACUUCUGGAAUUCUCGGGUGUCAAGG,-2.1
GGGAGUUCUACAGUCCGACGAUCAAGUCCUGUGCUACACAUCGUAUGUACCGAAUCGGUUUUGGGUUUUGGGGUUUUGGAAAGUAUUAUGUUACGCCGUUCGGAUCUGCACUUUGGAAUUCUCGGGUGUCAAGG,-0.356
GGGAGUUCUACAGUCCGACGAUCAAGUCCUGUGCUACACAUCGUAUGUACCGAAUCGGGAAAAAAAGGGAAAGGGUGGGAAAGUAUUAUGUUACGCCGUUCGGAUCUGCACUUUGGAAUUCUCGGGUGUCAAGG,-0.532

# Series 6 — method: protein binding microarray; molecule type: double-stranded DNA, one strand shown; medium: in vitro; tested at: not given; relative to: not given; reading: higher = stronger binding
# Target: Histone acetyltransferase KAT6A, winged helix 2, GST fusion (KAT6A, Homo sapiens, UniProt Q92794, residues 85-181)
# Notes: 8-mer, flanks averaged, mean of 2 arrays, mostly near background
# Target sequence (chain): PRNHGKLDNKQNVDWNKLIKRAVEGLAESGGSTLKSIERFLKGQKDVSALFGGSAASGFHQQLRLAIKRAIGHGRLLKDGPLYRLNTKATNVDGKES
Oligonucleotide,E-score
GGCGCGAC,0.31
CCGTACCG,0.0407
ACCGCCCA,0.1
CCAATTGC,-0.0581
AATATACC,-0.203
AACTGAGT,-0.136
CTAGGAAC,-0.272
ACGGATGG,0.0224
AATGGCGA,0.0644
GATCAGGC,-0.0546
AAGTTGTC,0.0926
GCCTCTCA,-0.0428
AATGGGCT,-0.073
GTACCCAA,0.0455
GTGGATGA,0.0641
AGATAATA,0.0193
ACCGGGAC,-0.0184
CACGTACA,-0.276
CCAGTGGA,0.0132

# Repeated from above (series 2):
Oligonucleotide,E-score
ATGTGCAG,0.0827
CACCTGCA,-0.176
GGGGGAAA,-0.0605
AAACCGCC,-0.125
CTTACTCA,0.113
AGCGAGGC,-0.266
CATTTGCG,0.0669
ATGCACGA,0.0722
CGGTCAGA,-0.129
ATCCATCA,0.0609
CGGTCCGC,-0.295
CGCGCGTA,-0.321
ACCGCAAA,-0.00634
CGATTTCC,-0.143
